Measured values of several laboratories.
Each numbered part is a random draw from the data of one study; scales do not carry over between parts. Changes are numbered by the printed parent chain.

Study 1 — target: CCNB3, cyclin fold, Cln2 fusion (human); technique: yeast growth competition, sequencing; medium: yeast; notes: weak parent motif; reference: not given; reading: higher = stronger binding
Parent: CDC6 docking peptide (human); TLKGRRLVFDNQL
Substitution	normalised enrichment score
L7F	0.165
N11D	0.368
G4D	0.237
R6M	0.566
F9W	0.504
L13N	0.203
D10C	0.614
L7H	-0.0969

Study 2 — technique: DHFR PCA, deep sequencing; medium: yeast; together with: (+)-ABA 2500 µM; reference: wild-type fitted maximum; reading: higher = stronger binding
Target: ABI1, truncated, D143A, DHFR fusion (Arabidopsis thaliana)
Notes: methotrexate growth selection, single substitutions
Parent: PYL1, truncated, DHFR fusion (Arabidopsis thaliana); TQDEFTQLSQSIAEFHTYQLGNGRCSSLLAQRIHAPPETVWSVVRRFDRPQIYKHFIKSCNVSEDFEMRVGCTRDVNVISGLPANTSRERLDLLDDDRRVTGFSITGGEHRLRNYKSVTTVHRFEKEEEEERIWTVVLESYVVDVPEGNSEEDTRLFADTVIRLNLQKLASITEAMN
Substitution	relative binding score [%]
R74S	-3.21
I79V	95.3
G102A	98

Study 3 — technique: aptamer microarray, sandwich; form: DNA with 2'F-ANA; medium: in vitro; concentration: 200 nM; together with: Cy3 exosite-II aptamer, 400 nM; reading: higher = stronger binding; strand: GGTTGGTGTGGTTGG
Target: Prothrombin, mature alpha-thrombin (F2, Homo sapiens, UniProt P00734)
Notes: whole 15-mer aptamer, many near background
Modification	mean fluorescence intensity
2'F-ANA at 3 4 5 7 8 12 13	172 a.u.
2'F-ANA at 2 3 5 6 7 11 13	63.8 a.u.
2'F-ANA at 1 3 4 5 7 11 13 14 15	69.3 a.u.
2'F-ANA at 2 3 4 7 9 15	608 a.u.
2'F-ANA at 1 2 3 7 8 9 10 13 14	52.5 a.u.
2'F-ANA at 4 5 7 8 11 14	54.1 a.u.

Other studies, line by line
Substance	target	test	test system	conditions	how to read	endpoint	result
PhoQ, residues 284 288 289 292 302 303 ASSHFY	PhoP, residues 12 14 15 18 19 DLLYY (Escherichia coli, UniProt P23836)	Sort-seq, item: YFP reporter	E. coli	PhoQ-PhoP variant library, together with: 10 µM Mg2+	reference: high Mg2+ state, higher = stronger signaling	fold induction	2.19

Repeated from above (study 2):
Substitution	relative binding score [%]
R74S	-3.21
I79V	95.3
